Results of several laboratories.
Numbered parts are unrelated; each lists some results of a single study.
Sequence of UniProt Q9NRM7 (whole entry, looked up): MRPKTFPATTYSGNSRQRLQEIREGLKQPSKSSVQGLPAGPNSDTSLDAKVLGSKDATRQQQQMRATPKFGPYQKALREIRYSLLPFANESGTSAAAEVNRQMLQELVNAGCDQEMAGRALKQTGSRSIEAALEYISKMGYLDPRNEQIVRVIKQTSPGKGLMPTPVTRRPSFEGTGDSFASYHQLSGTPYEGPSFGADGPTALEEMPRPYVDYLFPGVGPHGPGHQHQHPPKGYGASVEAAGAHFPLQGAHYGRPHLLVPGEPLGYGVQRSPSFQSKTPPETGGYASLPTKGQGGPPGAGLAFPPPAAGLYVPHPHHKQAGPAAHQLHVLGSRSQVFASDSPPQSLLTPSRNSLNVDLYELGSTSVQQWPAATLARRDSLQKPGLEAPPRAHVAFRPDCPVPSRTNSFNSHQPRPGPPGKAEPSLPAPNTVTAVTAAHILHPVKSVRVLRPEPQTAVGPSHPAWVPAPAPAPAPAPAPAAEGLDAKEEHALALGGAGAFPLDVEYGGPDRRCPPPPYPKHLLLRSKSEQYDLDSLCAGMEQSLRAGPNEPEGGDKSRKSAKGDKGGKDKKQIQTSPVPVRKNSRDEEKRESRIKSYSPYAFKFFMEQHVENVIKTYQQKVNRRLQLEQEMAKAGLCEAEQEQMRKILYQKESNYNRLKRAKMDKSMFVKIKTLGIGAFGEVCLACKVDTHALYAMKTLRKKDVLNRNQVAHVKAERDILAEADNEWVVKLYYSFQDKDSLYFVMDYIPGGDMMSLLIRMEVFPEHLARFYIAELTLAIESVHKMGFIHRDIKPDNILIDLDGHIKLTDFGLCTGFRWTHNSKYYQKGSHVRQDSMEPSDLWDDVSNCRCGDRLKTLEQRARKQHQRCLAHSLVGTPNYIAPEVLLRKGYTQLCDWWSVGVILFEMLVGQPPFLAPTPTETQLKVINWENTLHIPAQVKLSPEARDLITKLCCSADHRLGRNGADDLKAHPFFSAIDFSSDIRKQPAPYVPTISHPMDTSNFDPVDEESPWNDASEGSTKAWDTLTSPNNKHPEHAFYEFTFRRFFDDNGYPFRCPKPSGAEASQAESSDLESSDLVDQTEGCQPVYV
Sequence of UniProt P52333 (whole entry, looked up): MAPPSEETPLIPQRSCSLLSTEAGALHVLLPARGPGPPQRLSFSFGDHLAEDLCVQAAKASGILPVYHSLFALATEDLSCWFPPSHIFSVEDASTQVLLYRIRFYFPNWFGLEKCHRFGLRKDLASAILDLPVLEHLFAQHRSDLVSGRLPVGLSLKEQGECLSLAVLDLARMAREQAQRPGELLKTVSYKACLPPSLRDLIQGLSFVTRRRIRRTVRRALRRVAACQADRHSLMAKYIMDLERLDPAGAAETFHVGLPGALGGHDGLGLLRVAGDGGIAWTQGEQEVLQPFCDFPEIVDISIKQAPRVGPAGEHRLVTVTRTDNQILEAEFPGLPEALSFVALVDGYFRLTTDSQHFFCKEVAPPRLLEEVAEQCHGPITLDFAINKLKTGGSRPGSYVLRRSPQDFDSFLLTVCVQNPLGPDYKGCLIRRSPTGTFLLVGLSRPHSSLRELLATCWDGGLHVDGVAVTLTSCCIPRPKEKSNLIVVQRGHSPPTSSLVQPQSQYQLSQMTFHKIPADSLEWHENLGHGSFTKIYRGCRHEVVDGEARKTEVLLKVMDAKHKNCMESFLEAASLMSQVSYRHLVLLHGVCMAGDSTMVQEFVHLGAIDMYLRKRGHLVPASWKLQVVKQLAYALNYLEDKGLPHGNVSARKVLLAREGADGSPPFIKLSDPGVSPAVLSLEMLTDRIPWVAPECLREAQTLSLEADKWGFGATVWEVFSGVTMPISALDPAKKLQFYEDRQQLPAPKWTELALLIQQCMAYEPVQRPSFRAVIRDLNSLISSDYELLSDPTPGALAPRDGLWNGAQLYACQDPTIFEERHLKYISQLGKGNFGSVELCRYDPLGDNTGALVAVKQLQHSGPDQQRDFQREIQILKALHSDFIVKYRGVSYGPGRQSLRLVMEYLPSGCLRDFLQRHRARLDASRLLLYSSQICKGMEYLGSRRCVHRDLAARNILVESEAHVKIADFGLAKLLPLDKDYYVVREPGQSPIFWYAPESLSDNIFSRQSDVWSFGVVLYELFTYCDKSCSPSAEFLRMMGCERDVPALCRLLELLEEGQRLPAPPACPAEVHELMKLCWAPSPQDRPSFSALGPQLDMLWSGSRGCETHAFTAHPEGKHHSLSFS
Sequence of UniProt Q6XUX3 (whole entry, looked up): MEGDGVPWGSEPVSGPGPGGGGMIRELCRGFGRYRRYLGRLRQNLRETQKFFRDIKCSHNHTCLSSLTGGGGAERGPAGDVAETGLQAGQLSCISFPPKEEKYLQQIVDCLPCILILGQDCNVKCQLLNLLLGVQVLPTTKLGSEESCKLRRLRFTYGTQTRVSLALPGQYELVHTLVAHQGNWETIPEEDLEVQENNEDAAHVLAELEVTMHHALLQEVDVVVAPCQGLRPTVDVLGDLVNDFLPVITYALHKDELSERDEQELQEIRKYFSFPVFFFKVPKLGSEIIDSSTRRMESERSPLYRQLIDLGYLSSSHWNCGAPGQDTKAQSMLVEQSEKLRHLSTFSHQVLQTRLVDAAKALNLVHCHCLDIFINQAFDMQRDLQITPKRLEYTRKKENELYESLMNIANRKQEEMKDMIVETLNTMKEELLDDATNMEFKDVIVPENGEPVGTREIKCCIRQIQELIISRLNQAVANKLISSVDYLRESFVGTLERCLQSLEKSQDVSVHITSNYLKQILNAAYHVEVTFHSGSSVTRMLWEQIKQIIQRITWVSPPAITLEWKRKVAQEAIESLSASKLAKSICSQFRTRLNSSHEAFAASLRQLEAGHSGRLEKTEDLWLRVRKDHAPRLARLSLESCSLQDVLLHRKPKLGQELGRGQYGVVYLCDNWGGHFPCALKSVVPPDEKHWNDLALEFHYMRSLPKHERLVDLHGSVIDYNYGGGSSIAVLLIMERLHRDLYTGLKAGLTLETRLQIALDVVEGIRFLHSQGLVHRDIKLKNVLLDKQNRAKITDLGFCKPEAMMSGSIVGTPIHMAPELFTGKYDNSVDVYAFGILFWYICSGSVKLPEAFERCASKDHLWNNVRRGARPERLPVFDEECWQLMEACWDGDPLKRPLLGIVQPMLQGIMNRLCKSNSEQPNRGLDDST
Sequence of UniProt O15264 (whole entry, looked up): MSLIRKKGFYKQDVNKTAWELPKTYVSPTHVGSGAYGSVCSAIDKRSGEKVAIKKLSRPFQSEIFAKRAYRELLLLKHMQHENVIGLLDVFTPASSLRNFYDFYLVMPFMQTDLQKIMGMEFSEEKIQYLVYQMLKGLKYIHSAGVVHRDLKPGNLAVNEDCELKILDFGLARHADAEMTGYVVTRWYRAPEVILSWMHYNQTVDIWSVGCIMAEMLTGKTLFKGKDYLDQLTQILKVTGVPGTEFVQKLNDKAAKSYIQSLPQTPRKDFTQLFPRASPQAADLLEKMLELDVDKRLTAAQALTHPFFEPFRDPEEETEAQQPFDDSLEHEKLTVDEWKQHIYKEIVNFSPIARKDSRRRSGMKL

Series 1
Structure (SMILES): C=CCc1ccc(O)c(-c2ccc(O)c(CC=C)c2)c1
Read-out: chloride current
ANO1 del476-501/R631I: Anoctamin-1 (ANO1, Homo sapiens, UniProt Q5XXA6, del476-501/R631I)
Sequence of UniProt Q5XXA6 (whole entry, unmodified, looked up): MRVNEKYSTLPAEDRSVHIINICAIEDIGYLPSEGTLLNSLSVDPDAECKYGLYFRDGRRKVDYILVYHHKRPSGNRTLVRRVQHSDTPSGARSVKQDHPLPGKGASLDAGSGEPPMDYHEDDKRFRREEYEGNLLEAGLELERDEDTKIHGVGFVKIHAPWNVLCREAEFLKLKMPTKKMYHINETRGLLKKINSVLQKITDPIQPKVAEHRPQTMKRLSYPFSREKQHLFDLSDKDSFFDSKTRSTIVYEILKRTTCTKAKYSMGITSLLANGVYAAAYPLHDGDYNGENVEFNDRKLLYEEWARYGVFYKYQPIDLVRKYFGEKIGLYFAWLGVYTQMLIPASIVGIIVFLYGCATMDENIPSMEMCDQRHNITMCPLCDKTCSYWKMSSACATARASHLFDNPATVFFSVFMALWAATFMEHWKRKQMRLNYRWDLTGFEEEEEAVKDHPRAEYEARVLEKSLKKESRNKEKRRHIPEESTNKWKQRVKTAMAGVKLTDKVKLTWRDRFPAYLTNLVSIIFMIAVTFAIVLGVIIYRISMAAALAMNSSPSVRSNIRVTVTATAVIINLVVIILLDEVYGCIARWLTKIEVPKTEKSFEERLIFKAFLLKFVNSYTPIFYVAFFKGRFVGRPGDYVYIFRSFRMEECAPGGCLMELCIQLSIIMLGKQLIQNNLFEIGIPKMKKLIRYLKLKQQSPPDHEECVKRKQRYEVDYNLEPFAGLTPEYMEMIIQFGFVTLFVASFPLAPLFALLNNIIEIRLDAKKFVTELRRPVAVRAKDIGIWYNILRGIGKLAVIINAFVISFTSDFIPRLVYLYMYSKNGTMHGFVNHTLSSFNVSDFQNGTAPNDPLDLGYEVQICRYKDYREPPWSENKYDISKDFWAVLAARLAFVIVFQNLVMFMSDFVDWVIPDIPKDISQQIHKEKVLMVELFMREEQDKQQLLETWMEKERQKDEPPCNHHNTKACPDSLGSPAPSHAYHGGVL
ANO1 del476-501/R631K: Anoctamin-1 (ANO1, Homo sapiens, UniProt Q5XXA6, del476-501/R631K)
target | test | setting | IC50 [µM]
ANO1 del476-501/R631I | inhibitor, whole-cell voltage clamp | R605I mutant at -80 mV | 25.4
Anoctamin-1 (ANO1, Homo sapiens, UniProt Q5XXA6, del476-501/F807I) | inhibitor, whole-cell voltage clamp | mutant F781I | 7.5
ANO1 del476-501/R631K | inhibitor, whole-cell patch clamp | 300 nM Ca2+, 100 mV | 8.6
ANO1 del476-501/R631K | inhibitor, whole-cell voltage clamp | R605K mutant at 40 mV | 7.53
Anoctamin-1 (ANO1, Homo sapiens, UniProt Q5XXA6, del476-501/E650A) | whole-cell voltage clamp | membrane voltage 60 mV | 3.61
Anoctamin-1 (ANO1, Homo sapiens, UniProt Q5XXA6, del476-501) | whole-cell voltage clamp | membrane voltage -80 mV, together with: 300 nM Ca2+ | 3.01
Anoctamin-1 (ANO1, Homo sapiens, UniProt Q5XXA6, del476-501/F803Y) | inhibitor, whole-cell voltage clamp | 20 mV holding voltage | 10.6
Anoctamin-1 (ANO1, Homo sapiens, UniProt Q5XXA6, D383A/del476-501) | whole-cell voltage clamp | membrane voltage 100 mV | 4.95
ANO1 del476-501/R631I | inhibitor, whole-cell voltage clamp | R605I mutant at 60 mV | 25.4
Anoctamin-1 (ANO1, Homo sapiens, UniProt Q5XXA6, del476-501/F803I) | inhibitor, whole-cell voltage clamp | mutant F777I | 8.87
Anoctamin-1 (ANO1, Homo sapiens, UniProt Q5XXA6, del476-501/F627A) | whole-cell voltage clamp | membrane voltage 20 mV | 6.28

Series 2
Structure (SMILES): CNCc1ccccc1-c1csc([C@@H](C)Nc2nc(C)nc3cc(OC)c(OC)cc23)c1
Read-out: cell-free assay
Technique: competition with immobilised ligand
Tested at: 1 µM
target | remaining binding
Dual serine/threonine and tyrosine protein kinase (DSTYK, Homo sapiens, UniProt Q6XUX3) | 83%
Serine/threonine-protein kinase LATS2 (LATS2, Homo sapiens, UniProt Q9NRM7) | 98%
Serine/threonine-protein kinase OSR1 (OXSR1, Homo sapiens, UniProt O95747) | 67%
Serine/threonine-protein kinase Nek10 (NEK10, Homo sapiens, UniProt Q6ZWH5) | 73%
Phosphatidylinositol 5-phosphate 4-kinase type-2 gamma (PIP4K2C, Homo sapiens, UniProt Q8TBX8) | 92%
Mitogen-activated protein kinase kinase kinase 12 (MAP3K12, Homo sapiens, UniProt Q12852) | 100%
Aurora kinase C (AURKC, Homo sapiens, UniProt Q9UQB9) | 92%
Cyclin-dependent kinase 8 (CDK8, Homo sapiens, UniProt P49336) | 68%
cGMP-dependent protein kinase 2 (PRKG2, Homo sapiens, UniProt Q13237) | 85%
Serine/threonine-protein kinase RIO2 (RIOK2, Homo sapiens, UniProt Q9BVS4) | 100%
Receptor-type tyrosine-protein kinase FLT3 (FLT3, Homo sapiens, UniProt P36888, K663Q) | 77%
Mitogen-activated protein kinase kinase kinase 19 (MAP3K19, Homo sapiens, UniProt Q56UN5) | 71%
Eukaryotic translation initiation factor 2-alpha kinase 1 (EIF2AK1, Homo sapiens, UniProt Q9BQI3) | 100%
G protein-coupled receptor kinase 4 (GRK4, Homo sapiens, UniProt P32298) | 80%
Tyrosine-protein kinase ABL1, non-phosphorylated (ABL1, Homo sapiens, UniProt P00519, H396P) | 78%
Serine/threonine-protein kinase 38-like (STK38L, Homo sapiens, UniProt Q9Y2H1) | 86%
Tyrosine-protein kinase JAK3, JH1 (JAK3, Homo sapiens, UniProt P52333) | 94%
BMP-2-inducible protein kinase (BMP2K, Homo sapiens, UniProt Q9NSY1) | 87%
Mitogen-activated protein kinase kinase kinase 15 (MAP3K15, Homo sapiens, UniProt Q6ZN16) | 60%
Ephrin type-B receptor 2 (EPHB2, Homo sapiens, UniProt P29323) | 100%

Series 3
SMILES: O=C(Nc1cnn(-c2csc(C(=O)NC3COC3)c2)c1)Nc1c(F)cccc1Cl
Read-out: enzyme activity
Tested at: 5 µM
target | test | scale | remaining activity [%]
Ephrin type-A receptor 4 (EPHA4, Homo sapiens, UniProt P54764) | – | reference: untreated control | 87.8
Ephrin type-B receptor 4 (EPHB4, Homo sapiens, UniProt P54760) | – | reference: untreated control | 94.7
Activin receptor type-1-like (ACVRL1, Homo sapiens, UniProt P37023) | – | reference: untreated control | 119
Mitogen-activated protein kinase 13 (MAPK13, Homo sapiens, UniProt O15264) | – | reference: untreated control | 92
Epithelial discoidin domain-containing receptor 1 (DDR1, Homo sapiens, UniProt Q08345) | inhibitor | – | 88.9
Serine/threonine-protein kinase PAK 5 (PAK5, Homo sapiens, UniProt Q9P286) | – | reference: untreated control | 92.8
MAP kinase-activated protein kinase 3 (MAPKAPK3, Homo sapiens, UniProt Q16644) | – | reference: untreated control | 92.6
Tyrosine-protein kinase receptor TYRO3 (TYRO3, Homo sapiens, UniProt Q06418) | – | reference: untreated control | 65.6
Casein kinase I isoform alpha-like (CSNK1A1L, Homo sapiens, UniProt Q8N752) | – | reference: untreated control | 80.9
Mitogen-activated protein kinase kinase kinase 6 (MAP3K6, Homo sapiens, UniProt O95382) | – | reference: untreated control | 90.7
Angiopoietin-1 receptor (TEK, Homo sapiens, UniProt Q02763) | – | reference: untreated control | 104

Series 4
Target: Calcium/calmodulin-dependent protein kinase type II subunit alpha (CAMK2A, Homo sapiens, UniProt Q9UQM7)
Sequence of UniProt Q9UQM7 (whole entry, looked up): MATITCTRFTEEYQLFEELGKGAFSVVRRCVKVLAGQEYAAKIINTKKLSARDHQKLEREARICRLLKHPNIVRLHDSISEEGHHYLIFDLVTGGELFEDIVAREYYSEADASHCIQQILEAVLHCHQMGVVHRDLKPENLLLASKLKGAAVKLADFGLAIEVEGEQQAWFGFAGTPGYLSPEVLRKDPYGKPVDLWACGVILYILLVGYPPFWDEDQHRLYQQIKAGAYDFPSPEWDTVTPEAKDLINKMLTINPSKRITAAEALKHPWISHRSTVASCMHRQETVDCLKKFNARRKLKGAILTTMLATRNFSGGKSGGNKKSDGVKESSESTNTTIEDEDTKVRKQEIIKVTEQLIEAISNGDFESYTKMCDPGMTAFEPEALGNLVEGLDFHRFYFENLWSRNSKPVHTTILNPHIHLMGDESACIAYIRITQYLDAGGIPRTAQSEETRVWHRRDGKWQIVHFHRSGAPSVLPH
Read-out: enzyme activity
Action: inhibitor
Tested at: 10 µM
Structure (SMILES) | inhibition
Cn1c(=O)[nH]c2ncn(C)c2c1=O | -2%
C[C@@H]1CC[C@@]2(OC1)O[C@H]1C[C@H]3[C@@H]4CC[C@@H]5C[C@@H](O)CC[C@]5(C)[C@H]4CC[C@]3(C)[C@H]1[C@@H]2C | -38%
OC[C@H]1O[C@H](OC[C@H]2O[C@H](OC[C@H]3O[C@H](OC[C@H]4OC(O)[C@H](O)[C@@H](O)[C@@H]4O)[C@H](O)[C@@H](O)[C@@H]3O)[C@H](O)[C@@H](O)[C@@H]2O)[C@H](O)[C@@H](O)[C@@H]1O (stereo partly shown) | 23%
CC[C@H]1[C@@H](O)[C@@H]2[C@H](CC[C@]3(C)[C@@H]([C@H](C)CCC(=O)O)CC[C@@H]23)[C@@]2(C)CC[C@@H](O)C[C@@H]12 | -4%
C[C@]1(Cn2ccnn2)[C@H](C(=O)O)N2C(=O)C[C@H]2S1(=O)=O | 3%
C/C=C/C(=O)O | -38%
CC1(C)CC[C@]2(C(=O)O[C@@H]3O[C@H](CO)[C@@H](O)[C@H](O)[C@H]3O)CC[C@]3(C)C(=CC[C@@H]4[C@@]5(C)CC[C@H](O[C@@H]6O[C@H](C(=O)O)[C@@H](O)[C@H](O)[C@H]6O)C(C)(C)[C@@H]5CC[C@]43C)[C@@H]2C1 | -8%
CC1(C)CC[C@]2(C(=O)O[C@@H]3O[C@H](CO)[C@@H](O)[C@H](O)[C@H]3O)CC[C@]3(C)C(=CC[C@@H]4[C@@]5(C)CC[C@H](O[C@@H]6O[C@H](C(=O)O)[C@@H](O)[C@H](O)[C@H]6O[C@@H]6O[C@H](CO)[C@@H](O)[C@H](O)[C@H]6O)C(C)(C)[C@@H]5CC[C@]43C)[C@@H]2C1 | -18%
O=S1(=O)CCN(CN2CCS(=O)(=O)NC2)CN1 | -16%
Cn1c(=O)c2[nH]c(Br)nc2n(C)c1=O | -2%

A few entries again (series 3):
target | test | scale | remaining activity [%]
Ephrin type-A receptor 4 (EPHA4, Homo sapiens, UniProt P54764) | – | reference: untreated control | 87.8
Ephrin type-B receptor 4 (EPHB4, Homo sapiens, UniProt P54760) | – | reference: untreated control | 94.7
Activin receptor type-1-like (ACVRL1, Homo sapiens, UniProt P37023) | – | reference: untreated control | 119
Mitogen-activated protein kinase 13 (MAPK13, Homo sapiens, UniProt O15264) | – | reference: untreated control | 92
Epithelial discoidin domain-containing receptor 1 (DDR1, Homo sapiens, UniProt Q08345) | inhibitor | – | 88.9
Serine/threonine-protein kinase PAK 5 (PAK5, Homo sapiens, UniProt Q9P286) | – | reference: untreated control | 92.8
MAP kinase-activated protein kinase 3 (MAPKAPK3, Homo sapiens, UniProt Q16644) | – | reference: untreated control | 92.6
